Results gathered from unrelated publications.
Compare with care: the assays were run in different laboratories.
Cell line: MCF7

With `CCC(=C(c1ccc(Cl)cc1)c1ccc(OCCN2CCCC2)cc1)c1ccc(Cl)cc1` the inhibition was 46% (cell growth or viability; 10 µM).
For `COc1cc(Cc2c[nH]c3ncc(C(F)(F)F)cc23)cc(OC)c1`, the inhibition was 33% (cell growth or viability; 10 µM, 72 h).
The inhibition of `CCC(=C(c1ccc(Cl)cc1)c1ccc(OCCN2CCCCC2)cc1)c1ccc(OC)cc1` is reported as 84.7% (cell growth or viability; 10 µM).
The inhibition of `C=C1CC[C@@H]2[C@](C)(CO)[C@H](O)CC[C@@]2(C)[C@@H]1/C=C/C1=CCOC1=O` is reported as 5.52% (cell growth or viability, MTT; 20 µM, 48 h).
`FC(F)(F)c1ccc(Cc2c[nH]c3ncc(C(F)(F)F)cc23)cc1` has an inhibition of 44% (cell growth or viability; 10 µM, 72 h).
For `C/C(=N\N(c1ccccc1)c1ccccc1)c1ccc(O)cc1`, the inhibition was 69.4% (cell growth or viability, MTT; 100 µM, 48 h).
`COc1ccc(CC(C)=C(c2ccc(Cl)cc2)c2ccc(OCCN3CCCC3)cc2)cc1` has an inhibition of 64.3% (cell growth or viability; 10 µM).
For `CC(C)(C)c1cc2c(O)c(c1)Cc1cc(C(C)(C)C)cc(c1OCC(=O)Nc1cccc3cccnc13)Cc1cc(C(C)(C)C)cc(c1O)Cc1cc(C(C)(C)C)cc(c1OCC(=O)Nc1cccc3cccnc13)COC2`, the inhibition was 24% (cell growth or viability, MTT; 15 µM, 72 h).
`COc1ccc2cc3[n+](cc2c1OCc1cn(Cc2ccc(C(C)(C)C)cc2)nn1)CCc1cc2c(cc1-3)OCO2.[Cl-]` gave an inhibition of over 50% (cell growth, MTT; 7.8 µM).
The inhibition of `CCC(=C(c1ccc(Cl)cc1)c1ccc(OCCN(CC)CC)cc1)c1ccc(Cl)cc1` is reported as 75.8% (cell growth or viability; 10 µM).
`CC(C)OC1(CO)CCC2C(C)(CO)C(O)CCC2(C)C1C=CC1=CCOC1=O` (centres unmarked) gave an inhibition of 17% (cell growth or viability, MTT; 20 µM, 48 h).
With `CC(C)(C)c1cc2c(O)c(c1)Cc1cc(C(C)(C)C)cc(c1OCC(=O)Nc1nccs1)Cc1cc(C(C)(C)C)cc(c1O)Cc1cc(C(C)(C)C)cc(c1OCC(=O)Nc1nccs1)COC2` the inhibition was 89% (cell growth or viability, MTT; 15 µM, 72 h).
`C=C/C(=C/C(=O)C[C@H](C)C[C@@H](C)CC[C@H](O)[C@H](C)C(=O)/C=C/[C@H](C)[C@@H](C)O)CC` gave an inhibition of 89% (cell growth or viability, MTT; 50 µM, 48 h).
With `CCC(=C(c1ccc(Cl)cc1)c1ccc(OCCN2CCCC2)cc1)c1ccccc1` the inhibition was 76.9% (cell growth or viability; 10 µM).
The inhibition of `CC1(CO)C(O)CCC2(C)C(C=CC3=CCOC3=O)C(CO)=CCC12` (centres unmarked) is reported as 4.03% (cell growth or viability, MTT; 20 µM, 48 h).
`O=C(CCCCCCNCc1ccc(-c2ccccc2)s1)NO` gave an inhibition of 63% (10 µM).
The inhibition of `Cc1ccc(C2=Nn3c(N/N=C4/C(=O)Nc5ccc(Br)cc54)nnc3SC2)cc1` is reported as 12% (cell growth or viability, SRB; 10 µM).
The inhibition of `O=C(COc1ccccc1/C=N/Nc1nc(-c2ccc(Br)cc2)cs1)N1CCN(C(=O)COc2ccccc2/C=N/Nc2nc(-c3ccc(Br)cc3)cs2)CC1` is reported as 71.3% (cell growth or viability, SRB; 100 µM, 48 h).
`CC(C)(C)c1cc2c(O)c(c1)Cc1cc(C(C)(C)C)cc(c1OCC(=O)Nc1ccncc1)Cc1cc(C(C)(C)C)cc(c1O)Cc1cc(C(C)(C)C)cc(c1OCC(=O)Nc1ccncc1)COC2` has an inhibition of 26% (cell growth or viability, MTT; 15 µM, 72 h).
With `OC(c1cc(F)ccc1F)c1c[nH]c2ncc(C(F)(F)F)cc12` (centres unmarked) the inhibition was 32% (cell growth or viability; 10 µM, 72 h).
For `Cn1c(=O)c(C(=O)N/N=C/c2ccccc2/C=N/NC(=O)c2nc3ccccc3n(C)c2=O)nc2ccccc21`, the inhibition was 46.5% (cell growth or viability, MTT; 10 µM).
`N#C/C(=C1C=C/C(=N\O)C(Br)=C/1)c1ccc(Cl)cc1` has an inhibition of 66% (cell growth or viability, MTT; 100 µM, 48 h).
With `CCN(CC)CCOc1ccc(C(=C(C)c2ccc(Cl)cc2)c2ccc(Cl)cc2)cc1` the inhibition was 65.2% (cell growth or viability; 10 µM).
`COc1cccc(Cc2c[nH]c3ncc(C(F)(F)F)cc23)c1` has an inhibition of 32% (cell growth or viability; 10 µM, 72 h).
For `CC(C)(C)c1cc2c(O)c(c1)Cc1cc(C(C)(C)C)cc(c1OCC(=O)Nc1ccccn1)Cc1cc(C(C)(C)C)cc(c1O)Cc1cc(C(C)(C)C)cc(c1OCC(=O)Nc1ccccn1)COC2`, the inhibition was 23% (cell growth or viability, MTT; 15 µM, 72 h).
`Fc1ccc(F)c(Cc2c[nH]c3ncc(C(F)(F)F)cc23)c1` has an inhibition of 41% (cell growth or viability; 10 µM, 72 h).
For `COc1ccc(OCC(=O)c2ccc(O)c(C)c2O)cc1`, the inhibition was 6.72% (cell growth or viability, MTT; 100 µM, 48 h).
With `CCC(=C(c1ccc(Cl)cc1)c1ccc(OCCN(C)C)cc1)c1ccc(Cl)cc1` the inhibition was 79.5% (cell growth or viability; 10 µM).
`OC(c1ccc(Cl)c(C(F)(F)F)c1)c1c[nH]c2ncc(C(F)(F)F)cc12` (centres unmarked) gave an inhibition of 30% (cell growth or viability; 10 µM, 72 h).
For `CCC(=C(c1ccc(Cl)cc1)c1ccc(OCCN(CC)CC)cc1)c1ccc(OC)cc1`, the inhibition was 86.3% (cell growth or viability; 10 µM).
`Cc1cccc(NCC(=O)Nc2nc3ccccc3s2)c1` has an inhibition of -6.5% (cell growth or viability, MTT; 100 µM, 72 h).
`O=C(COc1ccc(/C=N/Nc2nc(-c3ccc(Br)cc3)cs2)cc1)N1CCN(C(=O)COc2ccc(/C=N/Nc3nc(-c4ccc(Br)cc4)cs3)cc2)CC1` gave an inhibition of 89.2% (cell growth or viability, SRB; 100 µM, 48 h).
`OC(c1ccc(C(F)(F)F)cc1)c1c[nH]c2ncc(C(F)(F)F)cc12` (centres unmarked) has an inhibition of 33% (cell growth or viability; 10 µM, 72 h).
`CCN1C(=O)/C(=C\c2ccc(O)cc2)SC1=S` gave an inhibition of 25.3% (cell growth or viability, MTT; 100 µM, 48 h).
With `FC(F)(F)Oc1cccc(Cc2c[nH]c3ncc(C(F)(F)F)cc23)c1` the inhibition was 27% (cell growth or viability; 10 µM, 72 h).
For `C/C(=N\N=c1/[nH]c(-c2ccccc2)cs1)c1ccccn1`, the inhibition was 51.5% (cell growth or viability, SRB; 100 µg/mL, 48 h).
For `COc1cc(/C=C/C(=O)/C=C(O)/C=C/c2ccc(OCC(=O)N3CCOCCOCCOCCOCCOCC3)c(OC)c2)ccc1OCC(=O)N1CCOCCOCCOCCOCCOCC1`, the inhibition was 39% (cell growth or viability, SRB; 5 µM).
For `CC(C)(C)c1cc2c(O)c(c1)Cc1cc(C(C)(C)C)cc(c1OCC(=O)Nc1cccc3ncccc13)Cc1cc(C(C)(C)C)cc(c1O)Cc1cc(C(C)(C)C)cc(c1OCC(=O)Nc1cccc3ncccc13)COC2`, the inhibition was 23% (cell growth or viability, MTT; 15 µM, 72 h).

Repeated from above:
`O=C(COc1ccc(/C=N/Nc2nc(-c3ccc(Br)cc3)cs2)cc1)N1CCN(C(=O)COc2ccc(/C=N/Nc3nc(-c4ccc(Br)cc4)cs3)cc2)CC1` gave an inhibition of 89.2% (cell growth or viability, SRB; 100 µM, 48 h).
`OC(c1ccc(C(F)(F)F)cc1)c1c[nH]c2ncc(C(F)(F)F)cc12` (centres unmarked) has an inhibition of 33% (cell growth or viability; 10 µM, 72 h).
`CCN1C(=O)/C(=C\c2ccc(O)cc2)SC1=S` gave an inhibition of 25.3% (cell growth or viability, MTT; 100 µM, 48 h).
With `FC(F)(F)Oc1cccc(Cc2c[nH]c3ncc(C(F)(F)F)cc23)c1` the inhibition was 27% (cell growth or viability; 10 µM, 72 h).
For `C/C(=N\N=c1/[nH]c(-c2ccccc2)cs1)c1ccccn1`, the inhibition was 51.5% (cell growth or viability, SRB; 100 µg/mL, 48 h).
